Assay results gathered from unrelated publications.
Parts stem from different laboratories: compare values within a part only. Changes are numbered by the printed parent chain.

Sample 1 — technique: EMSA with sequencing; molecule type: double-stranded DNA, one strand shown; sample: in vitro; concentration: 10 and 20 nM; relative to: negative control set to 0; direction: higher = stronger binding; measurement: normalised bound fraction
Target: Hepatocyte nuclear factor 3-alpha (Foxa1, Mus musculus, UniProt P35582, residues 1-468, full length assumed)
Sequence of UniProt P35582 (whole entry, looked up): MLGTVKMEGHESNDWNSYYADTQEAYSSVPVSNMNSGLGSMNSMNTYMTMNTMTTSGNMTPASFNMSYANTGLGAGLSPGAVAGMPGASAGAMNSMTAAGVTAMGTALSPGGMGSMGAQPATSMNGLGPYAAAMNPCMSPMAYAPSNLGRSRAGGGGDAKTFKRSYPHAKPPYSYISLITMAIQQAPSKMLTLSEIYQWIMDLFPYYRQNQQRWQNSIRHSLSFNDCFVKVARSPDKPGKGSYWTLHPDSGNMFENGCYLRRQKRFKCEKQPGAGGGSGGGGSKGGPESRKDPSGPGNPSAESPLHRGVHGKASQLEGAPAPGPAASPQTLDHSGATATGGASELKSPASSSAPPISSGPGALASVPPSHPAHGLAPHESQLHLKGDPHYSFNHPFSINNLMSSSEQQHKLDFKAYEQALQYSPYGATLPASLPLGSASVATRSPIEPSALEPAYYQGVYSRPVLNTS
Notes: whole designed probe, mean of two concentrations, ends assumed
Constant ends, left off below: GTGAGCGGTGCCCATTGATGGGGAAC … TTTCACTGGGATCGTGGGGAC
ATCTTCCCCCTCTTCCTTGCCCCACCAGCTCACCTTCCCGGGTTATTTGCAGATAGGAAAATAAATAAAGCCGGCATTCGTTAACCCTCTTCTGGCGCAAACTGCTGTTTGCTCTGGATGAATTTCGTCAGCTTGGCGACGCCAGGCTCCGGGAGAGCAAAGCACCGTGTCAGGGCCATGATCCGGGGTGGCC: 0.358 ratio
ATCTTCCCCCTCTTCCTTGCCCCACCAGCTCACCTTCCCGGGTTATTTGCAGATAGGAAAATAAATAAAGCCGGCATTCGTTAACGCAGTTCACGCGCATACTGCTGTTTGCTCTGCATGAATCATGGTCCTTACGCGACGCCAGGCTCCGGGAGAGCAAAGCACCGTGTCAGGCGCATGATCCGGGGTGGCC: 0.357 ratio
TTTACTTGTTTCTTTACATCACAGATATTTTGTTGAAAACTATTAAGATAGTATTTCTAGAATATAATAAAACATTCAGAATAGCATTGCTAAGCAATTTCACTGTGCCATGATTATGTTTTTTTGCAATGTGTATGCAATTGCTTTATTTTACATTAGGAAATAGACAAAATGCATCTATTCATTTTTCTTT: 0.0329 ratio
ATCTTCCCCCTCTTCCTTGCCCCACCAGCTCACCTACGGGGGTTATTTGCAGATAGGAAAATAAATAAAGCCGGCATTCGTTAACGCAGTTCTGGCGCAAACTGCTGTTTGCTCTGGATGAATCATGGTCCTTTGGCGACGCCAGGCTCCGGGAGAGCAAAGCACCGTGTCAGGGCCATGATCCGGGCTCGCC: 0.339 ratio
GCCTTGTTCAATTCTAGAATTTAATCTAGGATGACCCATTGTTTCTATTTGTCACATCTGTTTAGACTTCTCTGGTCTATGACAATTTCTCAGAGATTGCTTATTTTTCATGACTTCATAGTTTTGAGGAGTACTCATCAGGTATTTTGTGAAATGTCCCTCAATTTGTATTTGTCTTATGTTTTCTCATAAT: 0.176 ratio

Sample 2 — target: UBE2E1 UBC core domain (UniProt P51965); technique: yeast two-hybrid; sample: yeast; notes: mostly zero background; relative to: not given; direction: higher = stronger interaction; measurement: lacZ reporter activity
Sequence of UniProt P51965 (whole entry, looked up): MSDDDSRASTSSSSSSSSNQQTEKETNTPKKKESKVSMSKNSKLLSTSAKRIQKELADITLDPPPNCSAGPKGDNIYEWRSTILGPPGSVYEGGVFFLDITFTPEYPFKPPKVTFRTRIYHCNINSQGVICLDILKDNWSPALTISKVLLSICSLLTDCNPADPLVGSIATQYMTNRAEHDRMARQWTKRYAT
B1: MID1 RING domain (UniProt O15344); chain METLESELTCPICLELFEDPLLLPCAHSLCFNCAHRILVSHCATNESVESITAFQCPTCRHVITLSQRGL
B2: CUL9 RING domain (UniProt Q8IWT3); chain AQAVPVRPDHCPVCVSPLGCDDDLPSLCCMHYCCKSCWNEYLTTRIEQNLVLNCTCPIADCPAQPTGAFIR
B3: ZNF598 RING domain (UniProt Q86UK7); chain AAAPERGGGSCVLCCGDLEATALGRCDHPVCYRCSTKMRVLCEQRYCAVCREELRQVVFGK
B4: RNF25 RING domain (UniProt Q96BH1); chain LTDNNIPHGQCVICLYGFQEKEAFTKTPCYHYFHCHCLARYIQHMEQELKAQGQEQEQERQHATTKQKAVGVQCPVCREPLVYDLASL
B5: UHRF2 RING domain (UniProt Q96PU4); chain CGGDPEKKCHSCSCRVCGGKHEPNMQLLCDECNVAYHIYCLNPPLDKVPEEEYWYCPSCKTDSSEVVKAGER
B1 (MID1 RING domain): 0
B2 (CUL9 RING domain): 0
B3 (ZNF598 RING domain): 0
B4 (RNF25 RING domain): 7310
VTLSLTLPITCHICLGKVRQPVICINNHVFCSICIDLWLKNNSQCPACRVPITPENPCK (OBI1 RING domain (UniProt Q5W0B1)): 0
FPEHFVKSISCQICEHILADPVETNCKHVFCRVCILRCLKVMGSYCPSCRYPCFPTDLES (RAG1 RING domain (UniProt P15918)): 0
B5 (UHRF2 RING domain): 0
RLTMMWEEVTCPICLDPFVEPVSIECGHSFCQECISQVGKGGGSVCPVCRQRFLLKNLRP (TRIM21 RING domain (UniProt P19474)): 0
KTLSRFGIQPCSICLGDAKDPVCLPCDHVHCLRCLRAWFASEQMICPYCLTALPDEFSPA (RNF213 RING domain (UniProt Q63HN8)): 0

Sample 3 — technique: DHFR PCA, deep sequencing; sample: yeast; added: (+)-ABA 0.032 µM; relative to: wild-type fitted maximum; direction: higher = stronger binding; measurement: relative binding score
Target: ABI1, truncated, D143A, DHFR fusion (Arabidopsis thaliana)
Notes: methotrexate growth selection, single substitutions
Parent: PYL1, truncated, DHFR fusion (Arabidopsis thaliana); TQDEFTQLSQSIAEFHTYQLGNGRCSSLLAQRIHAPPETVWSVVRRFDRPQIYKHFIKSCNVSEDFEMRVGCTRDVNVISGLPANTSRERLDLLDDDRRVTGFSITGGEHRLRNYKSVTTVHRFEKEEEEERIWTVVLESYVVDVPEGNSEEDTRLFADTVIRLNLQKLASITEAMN
E151P: 41.4%
E14C: -1.09%
R163V: 4.92%
R90M: 1.51%
G102C: -1.98%
R88L: 3.08%
H16A: 8.24%
R49E: 12.1%
V145K: -4.11%
F5K: -0.93%
D144G: 2.33%
N77W: 5.25%
M68P: 1.38%
I12K: -6.1%
N77S: 47.6%
S59M: -2.84%
T73V: 37.3%
E67A: 10%
V143K: -3.56%

Sample 4 — target: CCNB3, cyclin fold, Cln2 fusion (human); technique: yeast growth competition, sequencing; sample: yeast; notes: weak parent motif; relative to: not given; direction: higher = stronger binding; measurement: normalised enrichment score
Parent: WEE1 docking peptide (human); HKTFRKLRLFDTP
HKTFRKFRLFDTP [L7F]: 0.0688
HKTFRKLRLEDTP [F10E]: 0.525
HRTFRKLRLFDTP [K2R]: 0.249
HKTFRKLRLFDKP [T12K]: -0.0124
HKTFRKLRLVDTP [F10V]: -0.192
HPTFRKLRLFDTP [K2P]: 0.18
HKTFNKLRLFDTP [R5N]: -4.02
HKIFRKLRLFDTP [T3I]: -0.104
HDTFRKLRLFDTP [K2D]: 0.473
WKTFRKLRLFDTP [H1W]: 0.488
HKTFRKLRPFDTP [L9P]: 0.0224
HKTFRKRRLFDTP [L7R]: 0.14
MKTFRKLRLFDTP [H1M]: 0.378
FKTFRKLRLFDTP [H1F]: -0.17
HKTFRKLRMFDTP [L9M]: -0.0969
HKTFKKLRLFDTP [R5K]: -0.00539
HKKFRKLRLFDTP [T3K]: -0.259
HKTFRKDRLFDTP [L7D]: -0.325
HKTFMKLRLFDTP [R5M]: 0.315
HKTFRKLRAFDTP [L9A]: 0.363
HKWFRKLRLFDTP [T3W]: -0.572
HKTHRKLRLFDTP [F4H]: 0.325
HKTFRKLRLFTTP [D11T]: -0.0686
HKTFRKLRLFPTP [D11P]: 0.616
HKTFRKIRLFDTP [L7I]: 0.973

For quick reference, copied from above (sample 4):
HDTFRKLRLFDTP [K2D]: 0.473
WKTFRKLRLFDTP [H1W]: 0.488
HKTFRKLRPFDTP [L9P]: 0.0224
HKTFRKRRLFDTP [L7R]: 0.14
MKTFRKLRLFDTP [H1M]: 0.378
FKTFRKLRLFDTP [H1F]: -0.17
HKTFRKLRMFDTP [L9M]: -0.0969
HKTFKKLRLFDTP [R5K]: -0.00539
HKKFRKLRLFDTP [T3K]: -0.259
